Measured values pooled from the literature.
A part holds a random share of what one study measured. Positions count from the first letter of the parent shown.

Study 1 — method: protein-binding microarray; molecule type: double-stranded DNA, one strand shown; medium: in vitro; tested at: 2200 nM top; notes: 60-bp whole probe; added: salmon DNA 0.4 mg/ml; reference: random background probes; direction: higher = stronger binding; shared flanks, not repeated: GCCTAGCAC … GTCTTGATTCGCTTGACGCTGCTG
Target: Interferon regulatory factor 7, full length, phosphomimetic (IRF7, Homo sapiens, UniProt Q92985, residues 1-503, S471D/S472D/S475D/S476D/S477D/S483D/S484D/S487D)
Chain of UniProt Q92985 (whole entry, unmodified, looked up): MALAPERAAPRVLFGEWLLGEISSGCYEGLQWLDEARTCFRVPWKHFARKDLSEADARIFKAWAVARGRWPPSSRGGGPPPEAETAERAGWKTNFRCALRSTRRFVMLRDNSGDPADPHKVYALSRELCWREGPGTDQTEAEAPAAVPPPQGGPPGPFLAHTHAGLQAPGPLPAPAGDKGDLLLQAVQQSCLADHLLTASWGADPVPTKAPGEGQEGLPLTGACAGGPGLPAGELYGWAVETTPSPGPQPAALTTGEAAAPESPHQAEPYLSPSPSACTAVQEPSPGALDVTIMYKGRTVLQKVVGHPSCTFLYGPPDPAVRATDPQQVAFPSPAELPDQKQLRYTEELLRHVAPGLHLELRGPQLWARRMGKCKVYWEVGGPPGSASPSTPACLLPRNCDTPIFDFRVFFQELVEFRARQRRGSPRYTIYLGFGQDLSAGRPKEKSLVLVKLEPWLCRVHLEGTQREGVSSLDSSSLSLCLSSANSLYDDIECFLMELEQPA
`GGCATTTTCGGGTAGATGGCCGTGCTA` — result for “fitted relative affinity”: 5.25 z-score.
`GCCGATCTCAGTCTCGAGACGTGCTAG`: “fitted relative affinity” 0.723 z-score.
For `GACGATCTCAGACTGGAGAGGTGCTAG`, “fitted relative affinity” read -0.266 z-score.
`GACGGACTGGGGACTGTGGACGTGCTA` — result for “fitted relative affinity”: -0.847 z-score.
For `TTAGGTATCGGGACTGGGGTAGTGCTA`, “fitted relative affinity” read -0.211 z-score.
Under “fitted relative affinity”, `TTAGATTTCGGGACTGGTTTAGTGCTA` is recorded as 1.12 z-score.
For `TAAATTTTGATGGAGAGTGCGTGCTAG`, “fitted relative affinity” read -0.68 z-score.
`CACAGTCTGAGATCCAGAAGGTGCTAG` — result for “fitted relative affinity”: 0.303 z-score.
For `TTGGAACTGGGGACTGGATTAGTGCTA`, “fitted relative affinity” read -0.3 z-score.
Under “fitted relative affinity”, `TCATTTTTCTAAGTAAAACTGTGCTAG` is recorded as 1.01 z-score.
`GACGGACTGCTAATCCTGACGTGCTAG`: “fitted relative affinity” 0.0909 z-score.
For `CTACGCCTGCAGGTGAGCCGGTGCTAG`, “fitted relative affinity” read -0.196 z-score.
`TTAGGTTTCGGGTGTCGGTTAGTGCTA`: “fitted relative affinity” 4.79 z-score.
`GTCGGTATCGGTCTCGGGACGTGCTAG` — result for “fitted relative affinity”: 0.691 z-score.
Under “fitted relative affinity”, `GACGGTAGCGACACTGGGGACGTGCTA` is recorded as -0.732 z-score.
`GATTCTCCTGCCTCAGCCTCGTGCTAG`: “fitted relative affinity” 1.11 z-score.
`TCACTTCTGGATTTTTTACTGTGCTAG`: “fitted relative affinity” 1.6 z-score.
`ATGTAATTCCTGCCTGAGCTCGTGCTA` — result for “fitted relative affinity”: 0.779 z-score.
Under “fitted relative affinity”, `CACGGTTTCGGGTTTCGGGACGTGCTA` is recorded as 9.91 z-score.

Study 2 — method: universal PBM; molecule type: double-stranded DNA, one strand shown; medium: in vitro; tested at: 600 nM; direction: higher = stronger binding
Target: Sal-like protein 4, full length isoform A (SALL4, Homo sapiens, UniProt Q9UJQ4, residues 1-1053)
Chain of UniProt Q9UJQ4 (whole entry, looked up): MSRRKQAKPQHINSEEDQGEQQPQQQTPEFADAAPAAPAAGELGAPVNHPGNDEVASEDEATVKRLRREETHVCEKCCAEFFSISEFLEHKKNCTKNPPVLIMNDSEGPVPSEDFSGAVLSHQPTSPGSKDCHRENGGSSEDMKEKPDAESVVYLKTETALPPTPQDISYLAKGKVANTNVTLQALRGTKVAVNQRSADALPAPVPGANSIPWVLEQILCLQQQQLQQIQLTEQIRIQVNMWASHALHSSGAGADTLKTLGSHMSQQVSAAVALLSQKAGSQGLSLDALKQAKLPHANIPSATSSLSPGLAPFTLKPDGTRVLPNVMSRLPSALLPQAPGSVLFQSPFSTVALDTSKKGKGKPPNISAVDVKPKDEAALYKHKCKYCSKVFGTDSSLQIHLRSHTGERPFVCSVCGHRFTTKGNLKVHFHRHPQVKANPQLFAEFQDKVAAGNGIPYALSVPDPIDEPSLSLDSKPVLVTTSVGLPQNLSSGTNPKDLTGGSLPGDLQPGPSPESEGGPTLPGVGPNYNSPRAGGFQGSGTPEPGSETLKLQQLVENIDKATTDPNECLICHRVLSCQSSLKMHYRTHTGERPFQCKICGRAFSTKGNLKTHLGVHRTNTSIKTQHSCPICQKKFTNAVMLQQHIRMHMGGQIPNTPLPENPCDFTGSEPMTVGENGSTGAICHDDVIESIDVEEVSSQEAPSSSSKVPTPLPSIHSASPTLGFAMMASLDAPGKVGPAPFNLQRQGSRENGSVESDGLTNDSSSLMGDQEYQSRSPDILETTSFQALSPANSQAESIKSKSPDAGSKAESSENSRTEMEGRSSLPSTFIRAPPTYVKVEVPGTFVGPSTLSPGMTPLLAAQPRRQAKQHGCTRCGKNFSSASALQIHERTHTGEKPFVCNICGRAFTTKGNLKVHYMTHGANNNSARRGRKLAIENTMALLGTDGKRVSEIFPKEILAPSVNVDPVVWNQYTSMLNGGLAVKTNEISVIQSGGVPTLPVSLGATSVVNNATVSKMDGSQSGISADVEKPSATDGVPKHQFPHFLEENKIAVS
Notes: 8-mer, flanks averaged, mean of replicates
`GACTCGGA` gave an E-score of -0.277.
The E-score of `ATCTAAGC` is reported as -0.0253.
With `AACGTTCC` the E-score was -0.028.
`AAAGCCTG` has an E-score of -0.0221.
For `CAGCCTAG`, the E-score was -0.125.
With `CACGGCGA` the E-score was -0.194.
The E-score of `AGATTAAA` is reported as 0.265.
`CTCGTTCC` gave an E-score of -0.111.
For `CTTAGTGC`, the E-score was -0.103.
`ACGTGATC` has an E-score of -0.0937.
With `AGCTCACA` the E-score was 0.0208.
With `AATGGTGA` the E-score was 0.0307.
For `ACGCGATG`, the E-score was -0.11.
The E-score of `AGTTAAGG` is reported as -0.0237.
With `GACGTTGA` the E-score was -0.0183.
With `CCCGGTTA` the E-score was -0.231.
For `ATCTGTCC`, the E-score was -0.153.

Study 3 — method: DHFR PCA, dose-response; medium: yeast; notes: Hill fit, mean, not affinity; added: (+)-ABA, dose series; direction: lower = more sensitive
Target: ABI1, truncated, D143A, DHFR fusion (Arabidopsis thaliana, UniProt P49597)
Starting sequence: PYL1, truncated, DHFR fusion (Arabidopsis thaliana, UniProt Q8VZS8); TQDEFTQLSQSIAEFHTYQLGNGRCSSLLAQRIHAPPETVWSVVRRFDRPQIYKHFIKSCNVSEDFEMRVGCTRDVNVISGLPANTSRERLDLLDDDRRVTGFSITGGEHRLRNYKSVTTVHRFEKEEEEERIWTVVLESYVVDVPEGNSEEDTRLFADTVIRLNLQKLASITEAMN
`R69F` gave an ABA EC50 of 8.41 µM.
The ABA EC50 of `Q167V` is reported as 6.46 µM.
For `L29W`, the ABA EC50 was 109 µM.
`R111D` gave an ABA EC50 of 193 µM.
With `N177C` the ABA EC50 was 0.791 µM.
With `Q31H` the ABA EC50 was 7.52 µM.
`R98Y` has an ABA EC50 of 38.4 µM.
The ABA EC50 of `T120G` is reported as 948 µM.
`E174V` gave an ABA EC50 of 14.9 µM.
For `L112I`, the ABA EC50 was 135 µM.
`R45V` has an ABA EC50 of 333 µM.
The ABA EC50 of `S11Y` is reported as 2.87 µM.
With `D159S` the ABA EC50 was 11.3 µM.
The ABA EC50 of `I52F` is reported as 4.38 µM.
The ABA EC50 of `I79P` is reported as 171 µM.
The ABA EC50 of `D159H` is reported as 116 µM.
`I12H` has an ABA EC50 of 76.8 µM.
`E174A` gave an ABA EC50 of 12.6 µM.
With `R123S` the ABA EC50 was 2.19 µM.
The ABA EC50 of `D159M` is reported as 595 µM.
`G23Y` has an ABA EC50 of 18 µM.
`V100C` gave an ABA EC50 of 9.22 µM.
The ABA EC50 of `Q7I` is reported as 2.7 µM.
The ABA EC50 of `A158S` is reported as 15.4 µM.

Study 4 — target: CCNE2, cyclin fold, Cln2 fusion (human); method: yeast growth competition, sequencing; medium: yeast; notes: strong parent motif; reference: not given; direction: higher = stronger binding
Starting sequence: CCP110 docking peptide (human); EKVKRRLDLDIDG; partner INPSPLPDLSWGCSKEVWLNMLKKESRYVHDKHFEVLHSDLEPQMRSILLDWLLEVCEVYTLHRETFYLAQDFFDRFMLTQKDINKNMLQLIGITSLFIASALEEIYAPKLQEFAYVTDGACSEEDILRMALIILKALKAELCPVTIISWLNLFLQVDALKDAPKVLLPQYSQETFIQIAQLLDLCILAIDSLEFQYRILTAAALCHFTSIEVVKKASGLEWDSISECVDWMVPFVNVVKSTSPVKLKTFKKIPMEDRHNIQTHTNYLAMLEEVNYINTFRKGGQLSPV
For `V3A`, “normalised enrichment score” read 0.909.
`G13A`: “normalised enrichment score” 1.59.
For `D10A`, “normalised enrichment score” read 1.4.
For `R5A L7A`, “normalised enrichment score” read 0.245.
For `L7A`, “normalised enrichment score” read -0.606.
For `R5A`, “normalised enrichment score” read -0.393.
For `R5K`, “normalised enrichment score” read 0.493.
`R5K L9F`: “normalised enrichment score” 3.47.
For `K2A`, “normalised enrichment score” read 1.19.
For `D12A`, “normalised enrichment score” read 1.76.

Study 5 — method: competition protein-binding microarray; molecule type: double-stranded DNA, one strand shown; medium: in vitro; tested at: 2 µM; added: Cbf1 competitor, 0.05 µM; direction: higher = stronger binding
Target: Phosphate system positive regulatory protein PHO4, full length, GST-tagged (PHO4, Saccharomyces cerevisiae, UniProt P07270, residues 1-312)
Notes: whole 60-bp probe, lowest competitor level
Target sequence (chain): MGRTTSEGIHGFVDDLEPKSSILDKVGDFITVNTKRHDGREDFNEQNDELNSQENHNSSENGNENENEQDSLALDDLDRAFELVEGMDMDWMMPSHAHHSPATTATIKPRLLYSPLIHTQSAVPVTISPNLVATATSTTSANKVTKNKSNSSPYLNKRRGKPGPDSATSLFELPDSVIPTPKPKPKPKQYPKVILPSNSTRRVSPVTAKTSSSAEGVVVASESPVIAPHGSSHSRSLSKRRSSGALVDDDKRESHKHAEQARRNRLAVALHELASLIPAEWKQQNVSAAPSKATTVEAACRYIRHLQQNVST
With `AAATTACTAAGTTGCAGCGTGGGTGACGCCGTATGAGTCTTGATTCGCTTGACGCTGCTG` the fluorescence intensity was 7780 a.u.
With `CTTCTGTAAATTTGGGGTGTGGGTGGACGCGCCCCGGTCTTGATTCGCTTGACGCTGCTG` the fluorescence intensity was 6220 a.u.
For `ACATATATTAAGTTCCACGTGATGGAGGGAATAGTCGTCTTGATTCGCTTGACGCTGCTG`, the fluorescence intensity was 16700 a.u.
With `GGCAAATATAACGGCCACGTGCCGAGGGGTTTCTCTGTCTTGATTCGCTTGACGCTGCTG` the fluorescence intensity was 15000 a.u.
For `GTAGCTCTGTCAAACCCCGTGGAACCGCAAACTCATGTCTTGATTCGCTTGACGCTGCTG`, the fluorescence intensity was 8440 a.u.
The fluorescence intensity of `AAATTACTAAGTTGTCACTCTACTTACCCCGTATGAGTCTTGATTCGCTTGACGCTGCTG` is reported as 3410 a.u.
For `CGGGGTTAAGTTTGCGAAGTGGGTGGCTTGCAGCAGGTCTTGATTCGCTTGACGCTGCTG`, the fluorescence intensity was 4900 a.u.
For `CGTCCTAGCGATTGATTAGTGGGTGCCATGAGGAAGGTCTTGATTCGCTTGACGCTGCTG`, the fluorescence intensity was 6590 a.u.
The fluorescence intensity of `CTGGACGGCAGAAAGCACGCAGGCAGGGGGCCTCTGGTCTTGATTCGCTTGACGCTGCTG` is reported as 6490 a.u.
The fluorescence intensity of `GTCTTGTCTCATTGCATGGTGGGTGTCCCCACTTCAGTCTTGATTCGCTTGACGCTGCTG` is reported as 5900 a.u.
For `GGGATCGCTATACTCCACGTGAAGTGACGCCTTGGAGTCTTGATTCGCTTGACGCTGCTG`, the fluorescence intensity was 12000 a.u.
For `AAATTACTAAGTTTTCACGTGGGATACCCCGTATGAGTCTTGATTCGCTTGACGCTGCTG`, the fluorescence intensity was 16400 a.u.
For `TCTGAGGGACAATGGCGCGTGATGGGCCAGAGACATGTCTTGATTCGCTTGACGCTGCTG`, the fluorescence intensity was 7840 a.u.
The fluorescence intensity of `GGGCTTATGAGAGACCACGTGGTCTTGTGCTTTAGTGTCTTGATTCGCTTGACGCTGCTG` is reported as 19000 a.u.
`AAGACAGATGGCCGACACGCACTTTCACAGTTTCGCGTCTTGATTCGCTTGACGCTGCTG` has a fluorescence intensity of 6600 a.u.
For `AAATTACTAAGTTGCGCTGTGGGTGACGCCGTATGAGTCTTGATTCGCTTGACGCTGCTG`, the fluorescence intensity was 3910 a.u.
`CTTCTGTAAATTTGCCACGTGTTTTGACGCGCCCCGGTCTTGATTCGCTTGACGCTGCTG` gave a fluorescence intensity of 15800 a.u.
`AAAGCGGTAATTTGGGTTGTGGGTGCAGATATCTATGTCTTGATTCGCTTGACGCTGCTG` gave a fluorescence intensity of 4860 a.u.
For `CCAGACACATCCCATTGCATGACGCAAGTGTGGGAGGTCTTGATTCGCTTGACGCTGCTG`, the fluorescence intensity was 6450 a.u.

Mixed results
With `PhoQ, residues 284 288 289 292 302 303 AEGLLW` the fold induction was 2.89 (PhoP, residues 12 14 15 18 19 NHTVL (Escherichia coli, UniProt P23836); Sort-seq, measured: YFP reporter; E. coli; PhoQ-PhoP variant library, added: 10 µM Mg2+; reference: high Mg2+ state, higher = stronger signaling).

A few entries again (study 4):
For `R5A L7A`, “normalised enrichment score” read 0.245.
`R5K L9F`: “normalised enrichment score” 3.47.
For `D12A`, “normalised enrichment score” read 1.76.
`G13A`: “normalised enrichment score” 1.59.
For `K2A`, “normalised enrichment score” read 1.19.
For `L7A`, “normalised enrichment score” read -0.606.
For `D10A`, “normalised enrichment score” read 1.4.
For `R5K`, “normalised enrichment score” read 0.493.
For `V3A`, “normalised enrichment score” read 0.909.
For `R5A`, “normalised enrichment score” read -0.393.
